Assay results gathered from unrelated publications.
Every numbered part comes from another study and shows a few of its results, in no order.

Set 1
Target: PABPC1L2, full length, GST fusion (mouse, UniProt A0ABA7IW68)
Method: RNAcompete
Form: RNA
Medium: in vitro
Tested at: 20 nM
Notes: 7-mer, probes averaged, single round
Baseline: mean of 7-mers
Reading: higher = stronger binding
Measurement: 7-mer Z-score
Target sequence (chain): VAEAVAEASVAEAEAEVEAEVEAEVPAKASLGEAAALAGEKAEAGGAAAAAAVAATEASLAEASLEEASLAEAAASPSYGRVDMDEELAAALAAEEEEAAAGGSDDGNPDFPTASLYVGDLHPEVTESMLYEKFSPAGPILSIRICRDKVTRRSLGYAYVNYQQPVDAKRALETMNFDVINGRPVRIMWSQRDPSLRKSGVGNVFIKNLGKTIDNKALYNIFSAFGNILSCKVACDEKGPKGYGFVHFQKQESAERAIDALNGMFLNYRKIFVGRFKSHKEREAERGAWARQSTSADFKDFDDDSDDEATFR
GCGACCA: 0.109
AGCACCC: -0.141
AACCACG: 0.0805
UUAUCGC: -0.387

Set 2
Target: Histone acetyltransferase KAT6A, winged helix 2, GST fusion (KAT6A, Homo sapiens, UniProt Q92794, residues 85-181)
Method: protein binding microarray
Form: double-stranded DNA, one strand shown
Medium: in vitro
Tested at: not given
Notes: 8-mer, flanks averaged, mean of 2 arrays, mostly near background
Baseline: not given
Reading: higher = stronger binding
Measurement: E-score
Construct (chain): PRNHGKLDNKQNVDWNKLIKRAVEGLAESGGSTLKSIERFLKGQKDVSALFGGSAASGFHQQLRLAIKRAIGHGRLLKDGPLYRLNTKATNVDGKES
GCTTATGA: 0.0417
AGCTACGG: -0.0706
CCCTCATA: -0.217
ATTGACAC: 0.0778
AACATCTC: -0.169

Set 3
Target: Phosphate system positive regulatory protein PHO4, full length, GST-tagged (PHO4, Saccharomyces cerevisiae, UniProt P07270, residues 1-312)
Method: competition protein-binding microarray
Form: double-stranded DNA, one strand shown
Medium: in vitro
Tested at: 2 µM
Notes: whole 60-bp probe, lowest competitor level
Together with: Cbf1 competitor, 0.05 µM
Reading: higher = stronger binding
Measurement: fluorescence intensity
Residues (chain): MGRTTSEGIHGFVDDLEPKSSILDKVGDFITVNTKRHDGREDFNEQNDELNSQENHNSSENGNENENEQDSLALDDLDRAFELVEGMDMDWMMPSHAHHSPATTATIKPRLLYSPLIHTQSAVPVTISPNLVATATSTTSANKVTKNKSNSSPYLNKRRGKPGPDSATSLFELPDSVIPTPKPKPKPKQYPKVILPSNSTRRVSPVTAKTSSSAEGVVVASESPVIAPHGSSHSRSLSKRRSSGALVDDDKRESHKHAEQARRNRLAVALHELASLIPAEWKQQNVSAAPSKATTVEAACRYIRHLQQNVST
AGTTGGTATATTTTGCACGTGTAGTCTAATGTTCTTGTCTTGATTCGCTTGACGCTGCTG: 16600 a.u.
AGGATCGTTGAGTACAGCGTGGGTAAATTTTTAGCGGTCTTGATTCGCTTGACGCTGCTG: 8350 a.u.
TGCGCAACAACTTGAGTAGTGGGTGTATGTCTAGAAGTCTTGATTCGCTTGACGCTGCTG: 4820 a.u.
CTTTCCCGATCTTGTCACGAAACTTTAGCACATTTGGTCTTGATTCGCTTGACGCTGCTG: 4290 a.u.

Other studies, line by line
PhoQ, residues 284 288 289 292 302 303 TVTVVA — fold induction (PhoP, residues 12 14 15 18 19 SQCLL (Escherichia coli, UniProt P23836); Sort-seq, item: YFP reporter; E. coli; PhoQ-PhoP variant library, together with: 10 µM Mg2+; baseline: high Mg2+ state, higher = stronger signaling): 12.1

For quick reference, copied from above (set 2):
GCTTATGA: 0.0417
AGCTACGG: -0.0706
